Measured values gathered from unrelated publications.
Protocols differ between the studies behind these lines.
Organism: Trypanosoma brucei
Read-out: parasite growth

SMILES	test	system	setting	measurement	result
Cc1cc(C)c(C#N)c(SCC(=O)c2cccs2)n1	resazurin			EC50	> 64000 nM
C[n+]1cc(NC(=O)c2ccc3ccc4ccc(C(=O)Nc5cc6ccccc6[n+](C)c5)nc4c3n2)cc2ccccc21	resazurin			EC90	1040 nM
CN1CCN(c2cccc(-c3ccc4ncnc(Nc5ccc([N+](=O)[O-])c(C(F)(F)F)c5)c4c3)c2)CC1	SYBR Green	GAMBIENSE		GI50	170 nM
CN1CCC(n2cnc(-c3ccc(F)cc3)c2-c2ccnc(NCCO)n2)CC1				EC50	1580 nM
CN(C)CCNC(=O)c1cccn2c(=O)c3cc4ccccc4cc3nc12	resazurin			EC90	170 nM
Cc1cc(C)c(C#N)c(SCC(=O)N2CCN(C)CC2)n1	resazurin			EC50	> 64000 nM
Clc1ccc(Nc2ncnc3ccc(-c4cccc(N5CCOCC5)c4)cc23)cc1Cl	SYBR Green		48 h	GI50	41 nM
CCn1cc(-c2ccnc3[nH]ccc23)c(-c2cccc(NC(=O)Nc3ccc(OCc4ccccc4)cc3)c2)n1				EC50	501 nM
COc1ccc(C(=O)CSc2[nH]c(=O)cc(C(F)(F)F)c2C#N)cc1	resazurin	RHODESIENSE		EC50	22100 nM
Cc1nc(Nc2ncnc3ccc(-c4cccc(N5CCOCC5)c4)cc23)oc1C	SYBR Green		48 h	GI50	1300 nM
O=C1Nc2ccc(-c3cccnc3)cc2C1=Cc1cc(Br)c(O)c(Br)c1				EC50	2000 nM
Cc1cc(C)c(C#N)c(SCc2ccccc2)n1	resazurin			EC50	41000 nM
c1cc(-c2ccc3ncnc(Nc4ncco4)c3c2)nc(N2CCOCC2)c1	SYBR Green			GI50	1900 nM
CCc1ccc(C(=O)CSc2nc(C)cc(C)c2C#N)cc1	resazurin			EC50	> 64000 nM
CN1CCN(c2cccc(-c3ccc4ncnc(Nc5ccc(Cl)c(C(F)(F)F)c5)c4c3)c2)CC1	SYBR Green		48 h	GI50	300 nM
COc1ccccc1C(=O)CSc1nc(C)cc(C)c1C#N	resazurin	RHODESIENSE		EC50	> 64000 nM
NS(=O)(=O)c1ccc(Nc2ncc(-c3ccccc3)o2)cc1				EC50	631 nM
C[C@H]1CN(c2cccc(-c3ccc4ncnc(Nc5ncco5)c4c3)c2)CCO1	SYBR Green		48 h	GI50	230 nM
COC(=O)c1ccc2c(c1)C(=Cc1cc(Br)c(O)c(Br)c1)C(=O)N2				EC50	25100 nM
Cc1cc(C)c(C#N)c(SCC(N)c2ccccc2)n1 (stereo not drawn)	resazurin	RHODESIENSE		EC50	14600 nM
Cc1ccc2c(c1)C(=NNc1ccc(S(N)(=O)=O)cc1)C(=O)N2				EC50	1580 nM
Cc1cnc(CNC(=O)c2c(=O)c3ccc(N4CCCN(C)CC4)nc3n3c2sc2ccccc23)cn1	resazurin			EC50	150 nM
CN(c1ncco1)c1ncnc2ccc(-c3cccc(N4CCOCC4)c3)cc12	SYBR Green		48 h	GI50	17000 nM
CCn1c(-c2nonc2N)nc2c(C#CC(C)(C)O)nc(O[C@@H](CN)c3ccccc3)cc21				EC50	126 nM
Cc1cc(C)c(C#N)c(SCC(=O)c2ccccc2)n1	resazurin	RHODESIENSE		EC50	48600 nM
c1cc(-c2ccc3ncnc(Nc4ncco4)c3c2)cc(N2CC3CCC(C2)O3)c1	SYBR Green		48 h	GI50	280 nM
CCc1cc(Nc2nccc(-c3c(-c4ccc(OC)c(C(=O)Nc5c(F)cccc5F)c4)nc4ccccn34)n2)c(OC)cc1N1CCC(N2CCN(S(C)(=O)=O)CC2)CC1				EC50	1380 nM

Repeated from above:
SMILES	test	system	setting	measurement	result
Cc1cc(C)c(C#N)c(SCC(=O)c2cccs2)n1	resazurin			EC50	> 64000 nM
C[n+]1cc(NC(=O)c2ccc3ccc4ccc(C(=O)Nc5cc6ccccc6[n+](C)c5)nc4c3n2)cc2ccccc21	resazurin			EC90	1040 nM
CN1CCN(c2cccc(-c3ccc4ncnc(Nc5ccc([N+](=O)[O-])c(C(F)(F)F)c5)c4c3)c2)CC1	SYBR Green	GAMBIENSE		GI50	170 nM
CN1CCC(n2cnc(-c3ccc(F)cc3)c2-c2ccnc(NCCO)n2)CC1				EC50	1580 nM
